Assay results gathered from unrelated publications.
Each line is one published result; not all experiments were run side by side. ± gives the spread as reported.

| Structure (SMILES) | assay | test system | setting | Tmax |
| --- | --- | --- | --- | --- |
| COc1nnc2ccc(N3CCC(c4ccc(OCCN5CCN(C)C(=O)[C@H]5C)cc4)CC3)nn12 | – | human, plasma | oral, 10 mg once daily, single dose, monotherapy | 2.98 h |
| Cc1cn(C(=O)c2c(-c3c(Cl)cc(Cl)cc3Cl)noc2C(C)(C)F)c2cccc(/C=C/C(=O)O)c12 | – | human patients | 125 mg bid, cycle 8 day 1 | 2.03 h |
| NC(CO)(CO)CCc1ccc(Sc2cccc(OCc3ccccc3)c2)cc1Cl | – | human, fed, whole blood | oral, 3 mg, median, added: itraconazole 200 mg once daily | 4 h |
| CC(C)(C)OC[C@@H]1C(=O)NCCN1C(=O)C[C@H](N)Cc1cc(F)c(F)cc1F | – | human, plasma | oral, steady state, EP treatment | 1.5 h |
| CCCS(=O)(=O)N[C@H]1C[C@@H](N(C)c2ncnc3[nH]ccc23)C1 | – | human, plasma | oral, 200 mg single dose | 1 h |
| COc1ccc2c3c1O[C@H]1C[C@@H](OC(=O)c4ccccc4)C=C[C@@]31CCN(C)C2 | – | human, plasma | intranasal, 5.5 mg single dose | 0.25 h |
| COc1cc([C@H]2Oc3ccc([C@H]4Oc5cc(O)cc(O)c5C(=O)[C@@H]4O)cc3O[C@@H]2CO)ccc1O | – | OATP1B1/1B3 humanized mice, plasma | oral gavage, 500 mg/kg silymarin, median | 0.25 h |
| NC(=O)N1c2ccccc2C=Cc2ccccc21 | – | healthy human subjects, plasma | oral, day 20, twice daily, alone, median | 4 h |
| CC1(COc2ccc3c(c2)ncn3-c2ccc3cccc(N4CCC(N)CC4)c3n2)COC1 | – | human patients, recurrent/progressive HGG or DIPG, serum | oral, 130 mg/m^2, day 1, median | 4 h |
| C[C@H](Oc1ccc(Br)cc1-c1ccon1)C(=O)O | LC-MS/MS, non-compartmental | human, plasma | 600 mg once daily, day 1, multiple ascending dose, median | 3 h |
| CC(C)NC(=O)COc1cccc(-c2nc(Nc3ccc4[nH]ncc4c3)c3ccccc3n2)c1 | – | human male, plasma | oral, 200 mg once daily, day 12, fed, median, added: dabigatran etexilate | 2 h |
| CC(C)[C@H](N)C(=O)NCCCS(=O)(=O)O | median | human, plasma | oral, 256.5 mg once daily, day 1, fasted, capsule | 0.5 h |
| CCCn1cc(C)c2c(=O)[nH]c(-c3cc(S(=O)(=O)N4CCN(CC)CC4)ccc3OCC)nc21 | – | human, plasma | oral, 100 mg, median, added: placebo beverage | 0.75 h |
| Cc1cc(-c2nnc(N)nc2-c2ccc(F)cc2)cc(Cl)n1 | – | human patients, plasma | oral, 100 mg nanosuspension once daily, multiple doses, median | 1 h |
| Cc1cc(Nc2cc3ncccc3c(N[C@@H]3C[C@H]4CC[C@@H](C3)N4CCC#N)n2)n[nH]1 | – | human, plasma | 300 mg single dose, median | 0.76 h |
| CCN(CC)Cc1cc(Nc2ccnc3cc(Cl)ccc23)ccc1O | – | human, both sexes, plasma | oral, dose not given, fixed-dose combination | 0.83 h |
| CN(C)C(=O)c1cc2cnc(Nc3ccc(N4CCNCC4)cn3)nc2n1C1CCCC1 | – | human, moderate renal impairment, plasma | oral, 400 mg, median | 2.48 h |
| O=C(c1cc(Cc2n[nH]c(=O)c3ccccc23)ccc1F)N1CCN(C(=O)C2CC2)CC1 | – | human, female, plasma | oral, 250 mg twice daily, added: abemaciclib | 2 h |
| Cn1c(=O)oc2ccc(-c3ccc(C[C@@H](C#N)NC(=O)[C@@H]4CNCCCO4)cc3)cc21 | – | human, severe renal impairment, plasma | oral, 25 mg single dose, median | 1 h |
| CCN1CCN(Cc2ccc(Nc3ncc(F)c(-c4cc(F)c5nc6n(c5c4)[C@H](C)CCC6)n3)nc2)CC1 | – | human, plasma | 300 mg multiple dosing, median | 1.98 h |
| CCCCCCCOc1ccc(CCC(N)(CO)CO)cc1C(F)(F)F.Cl | – | healthy human males, plasma | 0.25 mg, day 21, median | 10 h |
| NCCCS(=O)(=O)O | – | human, plasma | oral, 340 mg once daily, day 14, capsule, fasted, dosed days 8-14 | 1.53 h |
| CC(C)n1nc(-c2ccc3oc(N)nc3c2)c2c(N)ncnc21 | – | human patients, plasma | oral, 3 mg once daily, cycle 1 day 1, dose expansion | 0.5 h |
| Cn1cncc1[C@@](N)(c1ccc(Cl)cc1)c1ccc2c(c1)c(-c1cccc(Cl)c1)cc(=O)n2C | – | human, plasma | oral, 300 mg/m^2, median, first dose | 3 h |
| CCn1cc(C(=O)N2CCOCC2)c(=O)c2cc(NC3Cc4ccccc4C3)cnc21 | – | human overall, fed, plasma | oral, 900 mg twice daily, day 7, tablet, median | 3.5 h |
| C#C[C@]1(COP(=O)(O)OP(=O)(O)O)O[C@@H](n2cnc3c(N)nc(F)nc32)C[C@@H]1O | refers to: islatravir triphosphate | human, PBMC | oral, 15 mg single dose | 24 h |
| NC[C@@]1(CC(=O)O)[C@@H]2CC[C@H]3C[C@@H]2[C@@H]1C3 | – | human, severe renal impairment, plasma | oral, 20 mg single dose, median | 1.47 h |
| Cn1ncnc1[C@H]1c2n[nH]c(=O)c3cc(F)cc(c23)N[C@@H]1c1ccc(F)cc1 | – | human patients, plasma | oral, 600 µg/m2 twice daily day 1, day 5, dose level DL4, median, added: temozolomide 30 mg/m2 daily days 2-6 | 1 h |

| Structure (SMILES) | assay | test system | setting | Tmax |
| --- | --- | --- | --- | --- |
| Cc1ncnc2c1ccn2[C@@H]1C[C@H](Oc2cc(C(F)F)c(F)c3c2CNCC3)[C@@H](O)[C@H]1O | – | human, plasma | 0.5 mg once daily | 0.5 h |
| C#C[C@]1(CO)O[C@@H](n2cnc3c(N)nc(F)nc32)C[C@@H]1O | – | human, plasma | oral, 30 mg single dose, fed | 1.25 h |
| Cn1cc(-c2ccc(S(=O)(=O)[C@@H]3C[C@@H](C(=O)NC4(C#N)CC4)N(C(=O)C4(C(F)(F)F)CC4)C3)c(C(F)(F)F)c2)cn1 | noncompartmental analysis | human, plasma | oral, 100 mg, day 1, with food, median | 5 h |
| CC1=C(c2cccc(O)c2)[C@H](c2ccc(OCCN3CC(CF)C3)cc2)Oc2ccc(O)cc21 | – | human | 600 mg once daily, cycle 2 day 1, steady state, median | 1.5 h |
| Cc1noc(C)c1-c1cc(C(O)(c2ccccn2)c2ccccn2)c2nc(C3CC3)[nH]c2c1 | – | human patients, plasma | oral, 2 mg, cycle 1 day 8, monotherapy | 0.5 h |
| CO[C@H]1C[C@@H]2CC[C@@H](C)[C@@](O)(O2)C(=O)C(=O)N2CCCC[C@H]2C(=O)O[C@H]([C@H](C)C[C@@H]2CC[C@@H](OC(=O)NCCOCCOCCOCCOCCOCCOCCOCCOCCC(=O)N3CCc4cc(Cn5nc(-c6ccc7oc(N)nc7c6)c6c(N)ncnc65)ccc4C3)[C@H](OC)C2)C[C@@H](O)[C@H](C)/C=C(\C)[C@@H](O)[C@@H](OC)C(=O)[C@H](C)C[C@H](C)/C=C/C=C/C=C/1C | – | human patients, plasma | intravenous, 10 mg, cycle 1 day 15, 2 h infusion | 1 h |
| Cc1nc(-c2ccc(OCC(C)C)c(C#N)c2)sc1C(=O)O | – | human | oral, 10 mg once daily, added: verinurad 0 mg | 1.75 h |
| Cc1cc(-c2nccc3c2ccn3CC(=O)Nc2ccc(-c3cnccn3)cn2)ccn1 | – | human, plasma | oral, 7 mg single dose, median | 1.51 h |
| COc1ccc([C@@H](O)c2cc(-c3ncnc4cc(N5CCOCC5)ccc34)c(F)cc2Cl)nn1 | plasma pharmacokinetics | human | oral, 250 mg capecitabine, single dose, median | 2.43 h |
| CN(C)C(=O)c1cc2cnc(Nc3ccc(N4CCNCC4)cn3)nc2n1C1CCCC1 | – | human, expansion cohort, plasma | oral, 800 mg, day 8, added: gemcitabine 1000 mg/m^2 | 3.5 ± 1.6 h |
| COc1ncc(-c2nc3c(n2C(C)C)[C@H](c2ccc(Cl)cc2)N(c2cc(Cl)cn(C)c2=O)C3=O)c(OC)n1 | LC-MS/MS, noncompartmental | human, plasma | oral, 120 mg, C1D8, high-dose, median | 3.9 h |
| CO[C@@H]1[C@H](OC(=O)N2CC(CCN3CCOCC3)C2)CC[C@]2(CO2)[C@H]1[C@@]1(C)O[C@@H]1CC=C(C)C | – | humans, plasma | subcutaneous, 1.8 mg twice weekly, fifth dose | 0.26 h |
| CC(=O)O.NC(=O)c1cnc(N[C@@H]2CCCC[C@@H]2N)nc1Nc1cccc(-n2nccn2)c1 | – | human, plasma | oral, 11 mg once daily | 1 h |
| COc1cc(-c2cnc3cc(OCCN4CCOCC4)ccn23)cc2c1C(=O)N(CC(F)(F)F)CC2 | LC-MS | human, plasma | oral, 350 mg, -2 h on day 9, added: sulfasalazine 1000 mg | 0.5 h |
| C=CC(=O)NC1CCN(c2ncc3ncnc(Nc4ccc(Oc5ccc6c(c5)ncn6C)c(C)c4)c3n2)CC1 | – | human, male, plasma | oral, 30 mg single dose, fed, median | 3 h |
| C#C[C@]1(COP(=O)(O)O)O[C@@H](n2cnc3c(N)nc(F)nc32)C[C@@H]1O | – | human, fed, PBMC | oral, 30 mg single | 6 h |
| CN(C)CCCNC(=O)/C(=C/CCCCC(=O)NO)COc1cccc2ccccc12 | – | human | iv, 250 mg/m2, day 1, single dose, mean | 0.36 h |
| C[C@H](NC(=O)/C(C#N)=C/c1cccc(Br)n1)c1ccccc1 | LC-MS/MS | human, plasma | oral, 1 mg/kg, cycle 1 day 1 | 0.5 h |
| CC(C)n1c(Nc2cccnc2)nc2cnc(Nc3ccc(N4CCN(C)CC4)cc3)nc21 | LC-MS/MS | human, male, plasma | oral, 100 mg, day 11, median, added: itraconazole 200 mg | 1 h |
| CN(CC#N)C(=O)C[C@H](Nc1nc2ccccc2[nH]1)c1cccc(C(F)(F)F)c1 | – | human | intravenous infusion, 1 mg/kg, 5 mg/mL formulation | 0.41 ± 0.08 h |
| N#CCC1CCN(c2nc(Nc3ccc(N4CCC(O)CC4)cc3)c3c(=O)[nH]ncc3n2)CC1 | LC-MS/MS | human, plasma | oral, 20 mg once daily, day 1, median | 2 h |
| C#Cc1cccc(Nc2ncnc3cc(OCCOC)c(OCCOC)cc23)c1 | – | human, plasma | oral, 50 mg daily, day 7 | 2.3 h |
| O=c1ccn([C@@H]2O[C@H](CO)[C@@H](O)C2(F)F)c(=O)[nH]1 | – | human, plasma | intravenous, dose not given, cycle 1, median | 0.5 to 1 h |
| CC(F)(F)c1cc(F)ccc1-c1sc2cc(O)ccc2c1Oc1ccc(/C=C/C(=O)O)cc1 | – | human, serum | oral, 900 mg once daily, cycle 1 day 28, fasted, median | 3 h |
| O=C(NCCN1CCCC1)c1cc(-c2ccc(CN3CCOCC3)cc2)nc2ccc(F)cc12 | – | human, whole blood | oral, 1000 mg | 1.5 h |
| COCCOc1cnc2ccn([C@H](C)c3nnc4c(F)cc(-c5cnn(C)c5)cn34)c(=O)c2c1 | – | human patients, plasma | 300 mg once daily, day 1 | 2.9 h |
| COc1c(C)c2c(c(O[C@@H]3O[C@H](C(=O)O)[C@@H](O)[C@H](O)[C@H]3O)c1C/C=C(\C)CCC(=O)O)C(=O)OC2 | refers to: mycophenolic acid | healthy human subjects, plasma | oral, 1 g mycophenolate mofetil, median, with isavuconazole | 1 h |

For quick reference, copied from above:
| Structure (SMILES) | assay | test system | setting | Tmax |
| --- | --- | --- | --- | --- |
| COc1ccc2c3c1O[C@H]1C[C@@H](OC(=O)c4ccccc4)C=C[C@@]31CCN(C)C2 | – | human, plasma | intranasal, 5.5 mg single dose | 0.25 h |
| C#Cc1cccc(Nc2ncnc3cc(OCCOC)c(OCCOC)cc23)c1 | – | human, plasma | oral, 50 mg daily, day 7 | 2.3 h |
| CC(F)(F)c1cc(F)ccc1-c1sc2cc(O)ccc2c1Oc1ccc(/C=C/C(=O)O)cc1 | – | human, serum | oral, 900 mg once daily, cycle 1 day 28, fasted, median | 3 h |
| COc1ncc(-c2nc3c(n2C(C)C)[C@H](c2ccc(Cl)cc2)N(c2cc(Cl)cn(C)c2=O)C3=O)c(OC)n1 | LC-MS/MS, noncompartmental | human, plasma | oral, 120 mg, C1D8, high-dose, median | 3.9 h |
| CN(CC#N)C(=O)C[C@H](Nc1nc2ccccc2[nH]1)c1cccc(C(F)(F)F)c1 | – | human | intravenous infusion, 1 mg/kg, 5 mg/mL formulation | 0.41 ± 0.08 h |
| COc1cc([C@H]2Oc3ccc([C@H]4Oc5cc(O)cc(O)c5C(=O)[C@@H]4O)cc3O[C@@H]2CO)ccc1O | – | OATP1B1/1B3 humanized mice, plasma | oral gavage, 500 mg/kg silymarin, median | 0.25 h |
| CN(C)CCCNC(=O)/C(=C/CCCCC(=O)NO)COc1cccc2ccccc12 | – | human | iv, 250 mg/m2, day 1, single dose, mean | 0.36 h |
| Cc1ncnc2c1ccn2[C@@H]1C[C@H](Oc2cc(C(F)F)c(F)c3c2CNCC3)[C@@H](O)[C@H]1O | – | human, plasma | 0.5 mg once daily | 0.5 h |
